{"data": "Published values gathered from unrelated publications", "note": "Every numbered part comes from another study and shows a few of its results, in no order."}
{"data": "Sample 1", "target": "Transcription factor SOX-2, HMG box (Sox2, Mus musculus, UniProt P48432, residues 41-119)", "technique": "Spec-seq", "molecule type": "double-stranded DNA, one strand shown", "sample": "in vitro", "concentration": "not given", "setting": "whole probe, mean of replicates", "baseline": "not given", "reading": "lower = stronger binding", "all sequences stand within": "GAGTCGTCTCGTCAGCAC … CCGTAGAGCACTCAGGTC", "sequence of UniProt P48432 (41-119, looked up)": "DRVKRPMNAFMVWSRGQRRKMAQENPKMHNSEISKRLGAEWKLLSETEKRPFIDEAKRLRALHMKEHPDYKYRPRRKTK"}
{"Oligonucleotide": "GACTGTT", "relative binding energy [ln ratio]": 0.0709}
{"Oligonucleotide": "CATAATC", "relative binding energy [ln ratio]": -0.423}
{"Oligonucleotide": "GGCTGTT", "relative binding energy [ln ratio]": 0.66}
{"Oligonucleotide": "CATCACG", "relative binding energy [ln ratio]": 0.685}
{"Oligonucleotide": "CATCTAT", "relative binding energy [ln ratio]": 0.358}
{"Oligonucleotide": "CATACGC", "relative binding energy [ln ratio]": 0.227}
{"Oligonucleotide": "CATGCCA", "relative binding energy [ln ratio]": 0.522}
{"Oligonucleotide": "CCAGGTT", "relative binding energy [ln ratio]": 1.25}
{"data": "Sample 2", "host": "human", "sample": "microsomes or S9", "concentration": "2 µM", "time": "0.5 h"}
{"SMILES": "COc1cc(OC)cc(N2CCC(N(C)C(=O)Cc3c(N)nc(C)[nH]c3=O)C2)c1 (centres unmarked)", "remaining compound": "79.8%"}
{"SMILES": "CCn1nc(-c2nnc3n2CC(C)(C)CC3)c2ccccc2c1=O", "remaining compound": "> 100%"}
{"SMILES": "O=C1Nc2ccccc2Oc2cc(Oc3cccc4cccnc34)c(S(=O)(=O)N3CCOCC3)cc21", "remaining compound": "7.74%"}
{"SMILES": "O=C(c1ccc(Nc2nc3ccccc3n3nnnc23)cc1)N1CCc2ccccc2C1", "remaining compound": "3.43%"}
{"SMILES": "CN(CCC1CCOCC1)S(=O)(=O)c1cnn(C)c1", "remaining compound": "> 100%"}
{"data": "Sample 3", "target": "Alpha-1A adrenergic receptor (ADRA1A, Homo sapiens, UniProt P35348)", "effect on": "ligand displacement", "concentration": "10 µM", "sequence of UniProt P35348 (whole entry, looked up)": "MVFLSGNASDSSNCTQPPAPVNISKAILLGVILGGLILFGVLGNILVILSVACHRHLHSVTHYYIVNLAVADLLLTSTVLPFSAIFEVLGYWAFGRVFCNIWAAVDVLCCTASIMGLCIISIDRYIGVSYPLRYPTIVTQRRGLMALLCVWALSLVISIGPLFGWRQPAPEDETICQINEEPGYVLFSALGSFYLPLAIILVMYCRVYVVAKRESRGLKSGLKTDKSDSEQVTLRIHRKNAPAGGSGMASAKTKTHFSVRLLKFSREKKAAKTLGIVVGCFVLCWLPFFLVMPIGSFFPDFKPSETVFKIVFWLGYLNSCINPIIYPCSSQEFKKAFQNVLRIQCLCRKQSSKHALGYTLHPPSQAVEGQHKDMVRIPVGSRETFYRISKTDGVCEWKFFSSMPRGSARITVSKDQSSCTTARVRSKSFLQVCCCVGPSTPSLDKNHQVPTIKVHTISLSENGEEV"}
{"Structure (SMILES)": "NS(=O)(=O)c1cc(NC(=O)Cc2ccccc2)ccc1Oc1cccc(Cl)c1", "inhibition": "5.04%"}
{"Structure (SMILES)": "NC(=O)c1ccc2nc(-c3ccc(C4(N)CCC4)cc3)c(-c3ccccc3)n2n1", "inhibition": "39.4%"}
{"Structure (SMILES)": "COCCOc1nc(-c2ccc(Cl)nc2)nc2c1CN(C(=O)c1ncn3ccccc13)CC2", "inhibition": "12.7%"}
{"Structure (SMILES)": "CN([C@@H]1CCc2c(CC(=O)O)c3ccccc3n2C1)S(=O)(=O)c1ccc(F)cc1", "inhibition": "-4.89%"}
{"Structure (SMILES)": "CCC(=NO)C(C)=Cc1ccc(F)c(C)c1", "inhibition": "-8.35%"}
{"Structure (SMILES)": "COc1cc(-c2cn(C3CCc4c(F)cccc4N(CC(F)(F)F)C3=O)nn2)ccc1-n1cnc(C)c1 (centres unmarked)", "inhibition": "14.1%"}
{"Structure (SMILES)": "Cc1c(NC(=O)c2cc(C(N)=O)nc3cc(F)ccc23)c(C(F)(F)F)nn1Cc1ccc(C#N)cc1", "inhibition": "-5.75%"}
{"Structure (SMILES)": "Cc1cc(Nc2nccc(C)n2)cc(-c2cnc([C@@]3(O)CC[C@H](C(=O)O)C(C)(C)C3)s2)c1", "inhibition": "-16.9%"}
{"Structure (SMILES)": "C[C@@H]1CN(c2cc(-c3n[nH]c4ccc(OC5(C)CC5)cc34)ncn2)C[C@H](C)O1", "inhibition": "3.49%"}
{"Structure (SMILES)": "Nc1cnc(N2CCc3cc(S(=O)(=O)Nc4c(F)cc(Cl)cc4F)cc(N4CCCC4=O)c32)nc1", "inhibition": "-15.7%"}
{"Structure (SMILES)": "COc1cccc(NC(=O)c2nc3scc(CN(C)Cc4ccccc4)c3c(=O)[nH]2)c1", "inhibition": "12.5%"}
{"Structure (SMILES)": "CS(=O)(=O)N1CCCC(NC(=O)[C@H](CCC2CCCCC2)NC(=O)c2ccc(CNC(=O)c3cnc4ccccn34)cc2)C1 (some centres unmarked)", "inhibition": "34.9%"}
{"Structure (SMILES)": "O=S(=O)(NC1CCC(c2cc(F)ccc2F)(S(=O)(=O)c2ccc(Cl)cc2)CC1)C(F)(F)F (centres unmarked)", "inhibition": "9.88%"}
{"Structure (SMILES)": "CN(C)c1ncnc(-c2ccc3nc(Nc4cc(CN5CCN(C(=O)CC(F)(F)F)CC5)ccn4)[nH]c3c2)c1Cl", "inhibition": "12.8%"}
{"data": "Sample 4", "target": "Sal-like protein 4, full length isoform A (SALL4, Homo sapiens, UniProt Q9UJQ4, residues 1-1053)", "technique": "universal PBM", "molecule type": "double-stranded DNA, one strand shown", "sample": "in vitro", "concentration": "600 nM", "setting": "8-mer, flanks averaged, mean of replicates", "reading": "higher = stronger binding", "sequence of UniProt Q9UJQ4 (whole entry, looked up)": "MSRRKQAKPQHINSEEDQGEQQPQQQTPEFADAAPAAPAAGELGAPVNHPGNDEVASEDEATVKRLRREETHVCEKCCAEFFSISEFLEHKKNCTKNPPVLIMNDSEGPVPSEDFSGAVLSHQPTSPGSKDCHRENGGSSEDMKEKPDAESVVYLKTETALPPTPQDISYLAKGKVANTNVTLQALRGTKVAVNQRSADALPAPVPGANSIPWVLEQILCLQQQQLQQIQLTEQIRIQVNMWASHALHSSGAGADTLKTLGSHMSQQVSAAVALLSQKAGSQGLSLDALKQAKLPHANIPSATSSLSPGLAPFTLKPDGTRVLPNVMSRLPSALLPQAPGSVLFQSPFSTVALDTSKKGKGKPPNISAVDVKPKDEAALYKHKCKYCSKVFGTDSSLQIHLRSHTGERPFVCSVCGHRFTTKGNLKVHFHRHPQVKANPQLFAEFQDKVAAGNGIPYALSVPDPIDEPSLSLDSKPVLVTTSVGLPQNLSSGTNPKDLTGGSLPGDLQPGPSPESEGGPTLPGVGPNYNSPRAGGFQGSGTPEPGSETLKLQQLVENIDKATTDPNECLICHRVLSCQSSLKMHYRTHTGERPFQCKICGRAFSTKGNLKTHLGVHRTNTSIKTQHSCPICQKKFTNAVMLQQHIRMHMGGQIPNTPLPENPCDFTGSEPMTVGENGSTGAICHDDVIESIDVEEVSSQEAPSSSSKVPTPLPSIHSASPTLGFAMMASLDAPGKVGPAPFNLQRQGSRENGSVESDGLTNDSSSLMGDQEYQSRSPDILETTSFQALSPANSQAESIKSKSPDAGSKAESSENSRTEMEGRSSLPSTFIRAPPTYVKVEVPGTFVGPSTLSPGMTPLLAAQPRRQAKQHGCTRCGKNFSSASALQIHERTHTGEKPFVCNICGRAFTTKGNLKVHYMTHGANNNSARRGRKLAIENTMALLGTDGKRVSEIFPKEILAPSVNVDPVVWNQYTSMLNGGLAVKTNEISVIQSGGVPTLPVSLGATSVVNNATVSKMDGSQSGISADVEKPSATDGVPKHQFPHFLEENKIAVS"}
{"Oligonucleotide": "AAGAGCCG", "E-score": -0.287}
{"Oligonucleotide": "ATAGACGA", "E-score": 0.147}
{"Oligonucleotide": "CCGATTAG", "E-score": -0.0936}
{"Oligonucleotide": "GACCAGCC", "E-score": -0.248}
{"Oligonucleotide": "GCTAACAA", "E-score": 0.0887}
{"Oligonucleotide": "GATGCGGC", "E-score": -0.274}
{"Oligonucleotide": "AAGCGTAC", "E-score": -0.0135}
{"Oligonucleotide": "GGTTCCAA", "E-score": -0.129}
{"note": "Excerpt of the above (sample 2):"}
{"SMILES": "COc1cc(OC)cc(N2CCC(N(C)C(=O)Cc3c(N)nc(C)[nH]c3=O)C2)c1 (centres unmarked)", "remaining compound": "79.8%"}
{"SMILES": "CCn1nc(-c2nnc3n2CC(C)(C)CC3)c2ccccc2c1=O", "remaining compound": "> 100%"}
{"SMILES": "O=C1Nc2ccccc2Oc2cc(Oc3cccc4cccnc34)c(S(=O)(=O)N3CCOCC3)cc21", "remaining compound": "7.74%"}
{"SMILES": "O=C(c1ccc(Nc2nc3ccccc3n3nnnc23)cc1)N1CCc2ccccc2C1", "remaining compound": "3.43%"}
{"SMILES": "CN(CCC1CCOCC1)S(=O)(=O)c1cnn(C)c1", "remaining compound": "> 100%"}
